Results pooled from the literature.
Every numbered part comes from another study and shows a few of its results, in no order. Substitutions count along the parent as printed.

Block 1
Target: RNA binding protein fox-1 homolog 2, RRM domain, GST-SBP tag (RBFOX2, Homo sapiens, UniProt O43251-10, residues 100-194)
Method: RNA Bind-n-Seq
Molecule type: RNA
Medium: in vitro
Tested at: 365 nM
Notes: natural RNA segment, single round, ends assumed
Baseline: no-protein control
Direction: higher = stronger binding
All sequences stand within: GGGAGUUCUACAGUCCGACGAUC … UGGAAUUCUCGGGUGCCAA
Oligonucleotide	RBNS enrichment (R)
AGCCUCACCAGGUGGGCUUGUAGCCUCUAUUAUGCAAAUAUUCGUAGCUCAGCUUUCAGAGCGCUAACUCUAAAGGAAUUCACCUGAGCCUUGAGAGAGAACCUGGGCUA	0.5
CACCCCAAACAUCUUCAACAGCCGACUCUGGAUGACCUCGGGCCACUGGCAGCACUACAGCGAGAACAUGUUCUCCUUUGAGGUGGAGAAGGAGCUGUUUGCCCUGAAAC	0.805
UAAAAUAACAGCAAUAAACCUAACCUUUUAACAGGGUCUAACAUGAGAGUUGGAGUCAAAGCCAUUGUUAUCUUUUGGUGACACCCUUAAAUUUUAAGUCUUCCAGUCUU	0.69
GUGAACUGGCCAUUCCUUUCGGUGCUGCUGUCCUUUUUGGGGGGGUUCCUGAUUUCUGUAUACAUGUAGCUUUGCCAGAUAUGUACUUAGUAAUAUAAACUGUAUUAAUA	0.601
AUUUGAUUCUGUGCAGGACACAAAUCUCACAGGAACUAUAGCACUUUGGAAAAGCAUCAAAGUAGAAAAGAAAUACAGUGCAAUUCUAUUAUGAGAAUGUUUUACAUUUA	0.696
AGGCUGAGCUUCUGAUUCACCACCCCAGGGCCUCCUUAUAGUUCUCUGCACACAAUAGGUGCUUCUUGGAUGUUCUUGGGUUUGGAAAUAAGUGGAAAAUACGGGAUGUA	2.11
UACAUCUUGGAUUAAUCUUCUGAUUCAUUGUUCAUUUUCUCAAGACUUUUUGUGGAAUUCUCUGAUAAAGGAAGCUUUUAGGAUGGUAUCUAUCAGGCCACCAGCAGGAA	0.504
UAGAUAAUAGUGAAAUAAAUUCAGCUUUGCCAUUGCUGGAGUUGUCAAAAUUCCACAGUAAUUAAAAUUUGAAUUUUUACCGAAUAUGAAAUUUCCAAAUUAAAAACGUA	0.479

Block 2
Target: Histone acetyltransferase KAT6A, both winged helices, GST fusion (KAT6A, Homo sapiens, UniProt Q92794, residues 1-181)
Method: protein binding microarray
Molecule type: double-stranded DNA, one strand shown
Medium: in vitro
Tested at: not given
Notes: 8-mer, flanks averaged, mean of 2 arrays, mostly near background
Baseline: not given
Direction: higher = stronger binding
Construct (chain): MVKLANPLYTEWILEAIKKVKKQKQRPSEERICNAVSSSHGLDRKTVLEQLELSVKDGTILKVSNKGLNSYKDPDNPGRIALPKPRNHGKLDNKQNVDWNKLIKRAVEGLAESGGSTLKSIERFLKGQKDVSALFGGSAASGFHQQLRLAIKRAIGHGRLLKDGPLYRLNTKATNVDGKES
Oligonucleotide	E-score
ATGGGTTA	-0.16
AGTACTTC	-0.0436
AGGCTTAT	-0.144
AAAGGAAC	-0.0299
ATGTACAA	-0.0482
GCGAACCA	0.126
AAGTATTC	-0.201
GCTGGCGA	0.00781
GTTGGTCA	-0.0866
ATAGCGAG	-0.0112
GCAATCTA	-0.0387
CACATTCC	-0.00101
CACCTCGC	0.0406
ACAGAAAG	-0.184
GACGCATC	0.151
CACGCGGG	0.265
AACCTCTG	-0.00128
CAAGATGA	-0.156
ATATAGTA	-0.111
TAGATAGA	-0.161
GAGTTCTA	-0.127
CCACCGGC	0.145
CCTGGTAG	-0.247
CCCGGTAG	0.201
ACGAGCCG	0.151

Block 3
Target: CCND3, cyclin fold, Cln2 fusion (human)
Method: yeast growth competition, sequencing
Medium: yeast
Notes: weak parent motif
Baseline: not given
Direction: higher = stronger binding
Starting sequence: CDKN1A docking peptide (human); SKACRRLFGPVDS; partner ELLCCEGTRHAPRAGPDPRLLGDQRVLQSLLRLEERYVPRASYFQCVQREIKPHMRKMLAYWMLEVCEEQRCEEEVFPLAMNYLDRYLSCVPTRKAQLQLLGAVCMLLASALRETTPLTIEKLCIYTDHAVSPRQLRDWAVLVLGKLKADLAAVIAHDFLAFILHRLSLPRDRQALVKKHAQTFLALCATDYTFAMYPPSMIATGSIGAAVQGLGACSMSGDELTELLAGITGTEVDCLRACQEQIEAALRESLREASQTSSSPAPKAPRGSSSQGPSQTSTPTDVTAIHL
Change	normalised enrichment score
SDACRRLFGPVDS [K2D]	0.354
SKACRRLFGPDDS [V11D]	0.72
SKAIRRLFGPVDS [C4I]	0.47
SKACRRLEGPVDS [F8E]	-0.448
SKACRRLFGPADS [V11A]	0.399
SKVCRRLFGPVDS [A3V]	0.159
SKACRRLFGPVYS [D12Y]	-0.0268
SKACRRLFGPKDS [V11K]	0.0223
SKACRRLFTPVDS [G9T]	0.327
AKACRRLFGPVDS [S1A]	0.165
SKACRRLFGPFDS [V11F]	0.298
SKACRRWFGPVDS [L7W]	-0.184
SKACRRLFGPHDS [V11H]	0.484
SKAFRRLFGPVDS [C4F]	-0.257
SKACKRLLGPVDS [R5K F8L]	0.175
SKACFRLFGPVDS [R5F]	-0.00988
SKACRRLFGKVDS [P10K]	0.265
SKACRRLFGPVIS [D12I]	0.367
SKACRRLFGNVDS [P10N]	0.303
SKACRRKFGPVDS [L7K]	0.223
SKACRPLFGPVDS [R6P]	-0.285
SKAQRRLFGPVDS [C4Q]	0.473
SLACRRLFGPVDS [K2L]	0.349
SKACRRLQGPVDS [F8Q]	0.063
SSACRRLFGPVDS [K2S]	0.46

Block 4
Target: Sal-like protein 4, full length isoform B (SALL4, Homo sapiens, UniProt Q9UJQ4-2, residues 1-616)
Method: universal PBM
Molecule type: double-stranded DNA, one strand shown
Medium: in vitro
Tested at: not given
Notes: 8-mer, flanks averaged, mean of replicates
Direction: higher = stronger binding
Oligonucleotide	E-score
AGCTATAA	0.3
ATTTGAAA	0.251
TAAGATTA	0.214
ACGACCCG	-0.115
TCATGGAA	0.262
ACGCTTTA	0.0355
AACAGATA	0.142
CTTGAAAA	0.275
ACTGGCCC	-0.169
ATGTTGCA	0.142
GTCGCCCA	-0.279
AGAGCACC	-0.326
AAGCACCG	-0.25
CGCTAACA	-0.064
AGGAGAAC	-0.142
ACAGCTCT	-0.13
ATTGCGGC	-0.0755

Block 5
Target: CREM, bZIP domain (human)
Method: DHFR protein complementation
Medium: yeast
Notes: single substitutions, most at no-binding floor
Baseline: wild-type JUN-FOS pair
Direction: higher = stronger binding
Starting sequence: JUN, bZIP domain (human); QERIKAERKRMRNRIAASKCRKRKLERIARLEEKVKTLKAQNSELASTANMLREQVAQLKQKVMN; partner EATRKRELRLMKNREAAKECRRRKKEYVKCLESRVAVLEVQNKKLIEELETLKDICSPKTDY
Change	binding fitness
A49W	-1.5 natural log
L31T	-1.5 natural log
V56L	-1.49 natural log
E33A	-1.43 natural log
L45E	-1.4 natural log
T37G	-1.54 natural log
L38N	-1.6 natural log
I28G	-1.47 natural log
V35W	-1.47 natural log
A57Q	-1.44 natural log
E33T	-1.47 natural log

Single results of other studies
Substance	target	test	system	setting	how to read	endpoint	value
PhoQ, residues 284 288 289 292 302 303 SACGEM	PhoP, residues 12 14 15 18 19 GHCSL (Escherichia coli, UniProt P23836)	Sort-seq, item: YFP reporter	E. coli	PhoQ-PhoP variant library, together with: 10 µM Mg2+	baseline: high Mg2+ state, higher = stronger signaling	fold induction	14.7

Excerpt of the above (block 3):
Change	normalised enrichment score
SKACRRLFGPHDS [V11H]	0.484
SKAFRRLFGPVDS [C4F]	-0.257
SKACRRLFTPVDS [G9T]	0.327
SKACKRLLGPVDS [R5K F8L]	0.175
SKACRRLFGNVDS [P10N]	0.303
SKACRRLFGPKDS [V11K]	0.0223
SKAQRRLFGPVDS [C4Q]	0.473
SKVCRRLFGPVDS [A3V]	0.159
SKACRRLFGPFDS [V11F]	0.298
SKACRRLFGPDDS [V11D]	0.72
